Experimental data gathered from unrelated publications.
Numbered parts are unrelated; each lists some results of a single study. Changes are numbered by the printed parent chain.
UniProt P49336, sequence (whole entry, looked up): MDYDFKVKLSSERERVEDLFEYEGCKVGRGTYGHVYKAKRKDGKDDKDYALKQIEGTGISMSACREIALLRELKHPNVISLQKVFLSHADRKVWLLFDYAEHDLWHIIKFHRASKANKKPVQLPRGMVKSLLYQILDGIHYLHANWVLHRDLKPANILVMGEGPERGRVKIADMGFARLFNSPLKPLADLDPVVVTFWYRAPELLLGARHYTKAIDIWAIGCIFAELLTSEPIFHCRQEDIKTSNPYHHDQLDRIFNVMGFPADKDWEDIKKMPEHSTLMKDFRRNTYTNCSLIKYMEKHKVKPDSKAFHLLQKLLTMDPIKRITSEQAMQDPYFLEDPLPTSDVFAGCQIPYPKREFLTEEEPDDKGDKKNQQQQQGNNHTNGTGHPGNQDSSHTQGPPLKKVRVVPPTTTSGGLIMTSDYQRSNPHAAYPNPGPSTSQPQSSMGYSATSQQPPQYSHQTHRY
UniProt Q9Y2H1, sequence (whole entry, looked up): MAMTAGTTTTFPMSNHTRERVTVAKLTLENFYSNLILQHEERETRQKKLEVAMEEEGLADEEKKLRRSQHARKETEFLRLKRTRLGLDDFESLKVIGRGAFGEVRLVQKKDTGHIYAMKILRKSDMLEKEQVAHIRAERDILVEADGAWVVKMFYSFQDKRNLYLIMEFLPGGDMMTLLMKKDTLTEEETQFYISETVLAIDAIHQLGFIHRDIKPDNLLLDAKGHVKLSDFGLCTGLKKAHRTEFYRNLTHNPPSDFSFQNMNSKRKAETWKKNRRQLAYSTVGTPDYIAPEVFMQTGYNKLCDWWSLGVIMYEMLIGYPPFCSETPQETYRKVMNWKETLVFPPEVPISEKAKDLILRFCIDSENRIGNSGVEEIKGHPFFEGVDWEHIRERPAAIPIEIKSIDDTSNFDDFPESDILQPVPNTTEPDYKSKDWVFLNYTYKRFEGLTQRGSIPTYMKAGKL
UniProt Q9UQB9, sequence (whole entry, looked up): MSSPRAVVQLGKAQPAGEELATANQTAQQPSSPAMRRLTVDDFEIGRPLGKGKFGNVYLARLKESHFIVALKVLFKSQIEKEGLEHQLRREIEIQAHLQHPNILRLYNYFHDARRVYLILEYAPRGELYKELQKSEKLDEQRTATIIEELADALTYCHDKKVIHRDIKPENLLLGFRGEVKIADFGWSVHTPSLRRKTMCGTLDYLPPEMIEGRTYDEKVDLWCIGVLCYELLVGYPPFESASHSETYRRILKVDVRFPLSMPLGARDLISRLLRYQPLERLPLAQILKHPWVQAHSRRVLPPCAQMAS
UniProt P29597, sequence (whole entry, looked up): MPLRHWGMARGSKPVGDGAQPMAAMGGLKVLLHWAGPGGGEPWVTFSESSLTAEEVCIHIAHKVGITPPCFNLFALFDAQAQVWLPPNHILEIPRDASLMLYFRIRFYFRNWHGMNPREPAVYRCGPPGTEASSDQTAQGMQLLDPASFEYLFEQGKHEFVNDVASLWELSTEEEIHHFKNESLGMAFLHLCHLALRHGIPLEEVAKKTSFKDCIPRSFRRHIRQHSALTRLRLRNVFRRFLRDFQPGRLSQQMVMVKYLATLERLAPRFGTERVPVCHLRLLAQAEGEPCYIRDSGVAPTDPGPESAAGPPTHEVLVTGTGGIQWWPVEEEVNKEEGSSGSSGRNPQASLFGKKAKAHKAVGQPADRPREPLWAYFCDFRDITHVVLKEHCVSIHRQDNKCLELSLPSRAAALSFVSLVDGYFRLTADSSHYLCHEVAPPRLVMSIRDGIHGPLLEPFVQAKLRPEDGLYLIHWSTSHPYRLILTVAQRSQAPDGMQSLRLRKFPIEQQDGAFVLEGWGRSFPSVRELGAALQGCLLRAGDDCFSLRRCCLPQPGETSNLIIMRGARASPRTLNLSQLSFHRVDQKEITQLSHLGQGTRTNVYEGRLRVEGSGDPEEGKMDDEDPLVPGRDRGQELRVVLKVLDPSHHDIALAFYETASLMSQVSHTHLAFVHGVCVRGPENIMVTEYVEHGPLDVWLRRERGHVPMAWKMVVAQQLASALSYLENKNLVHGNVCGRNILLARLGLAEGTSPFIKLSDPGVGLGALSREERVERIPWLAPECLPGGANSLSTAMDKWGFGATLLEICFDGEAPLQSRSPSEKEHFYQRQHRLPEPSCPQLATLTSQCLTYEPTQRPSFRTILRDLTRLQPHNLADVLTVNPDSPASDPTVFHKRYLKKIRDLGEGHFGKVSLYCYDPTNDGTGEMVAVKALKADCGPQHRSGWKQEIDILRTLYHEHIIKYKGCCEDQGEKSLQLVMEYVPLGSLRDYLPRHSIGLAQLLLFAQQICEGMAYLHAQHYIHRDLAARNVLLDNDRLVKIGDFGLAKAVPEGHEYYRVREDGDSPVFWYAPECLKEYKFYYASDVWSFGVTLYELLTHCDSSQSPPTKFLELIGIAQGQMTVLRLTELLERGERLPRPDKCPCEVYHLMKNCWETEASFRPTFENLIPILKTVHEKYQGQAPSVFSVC
UniProt Q9NSY1, sequence (whole entry, looked up): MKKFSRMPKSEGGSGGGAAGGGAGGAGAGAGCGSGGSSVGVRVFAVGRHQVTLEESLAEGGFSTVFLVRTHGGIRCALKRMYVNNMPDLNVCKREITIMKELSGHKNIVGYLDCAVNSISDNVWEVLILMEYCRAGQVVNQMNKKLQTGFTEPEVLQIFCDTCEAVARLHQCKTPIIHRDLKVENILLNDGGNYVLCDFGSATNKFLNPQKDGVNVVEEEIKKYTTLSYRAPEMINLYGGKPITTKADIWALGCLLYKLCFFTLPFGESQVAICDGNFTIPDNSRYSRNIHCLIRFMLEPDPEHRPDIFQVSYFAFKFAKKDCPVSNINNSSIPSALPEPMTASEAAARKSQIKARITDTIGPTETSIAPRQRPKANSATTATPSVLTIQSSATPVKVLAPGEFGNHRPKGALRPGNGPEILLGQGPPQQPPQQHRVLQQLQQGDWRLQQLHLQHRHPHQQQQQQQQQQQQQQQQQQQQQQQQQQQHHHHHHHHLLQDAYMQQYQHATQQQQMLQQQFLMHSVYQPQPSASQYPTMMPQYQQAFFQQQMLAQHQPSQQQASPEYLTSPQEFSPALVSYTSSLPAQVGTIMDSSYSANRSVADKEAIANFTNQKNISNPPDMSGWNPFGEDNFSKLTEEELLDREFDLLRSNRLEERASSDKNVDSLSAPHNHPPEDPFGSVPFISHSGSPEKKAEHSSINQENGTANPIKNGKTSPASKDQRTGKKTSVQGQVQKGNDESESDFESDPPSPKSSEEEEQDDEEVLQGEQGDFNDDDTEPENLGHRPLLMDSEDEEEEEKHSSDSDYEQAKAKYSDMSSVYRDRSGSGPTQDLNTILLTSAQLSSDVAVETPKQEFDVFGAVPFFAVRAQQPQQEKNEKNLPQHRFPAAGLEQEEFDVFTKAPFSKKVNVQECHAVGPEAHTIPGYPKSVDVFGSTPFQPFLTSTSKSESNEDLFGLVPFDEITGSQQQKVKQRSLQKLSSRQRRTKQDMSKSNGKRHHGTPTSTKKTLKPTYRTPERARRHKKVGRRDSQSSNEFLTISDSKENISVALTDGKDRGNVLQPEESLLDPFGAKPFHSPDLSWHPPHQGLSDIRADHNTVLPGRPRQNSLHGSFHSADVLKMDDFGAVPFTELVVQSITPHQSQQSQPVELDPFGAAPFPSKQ
UniProt Q12866, sequence (whole entry, looked up): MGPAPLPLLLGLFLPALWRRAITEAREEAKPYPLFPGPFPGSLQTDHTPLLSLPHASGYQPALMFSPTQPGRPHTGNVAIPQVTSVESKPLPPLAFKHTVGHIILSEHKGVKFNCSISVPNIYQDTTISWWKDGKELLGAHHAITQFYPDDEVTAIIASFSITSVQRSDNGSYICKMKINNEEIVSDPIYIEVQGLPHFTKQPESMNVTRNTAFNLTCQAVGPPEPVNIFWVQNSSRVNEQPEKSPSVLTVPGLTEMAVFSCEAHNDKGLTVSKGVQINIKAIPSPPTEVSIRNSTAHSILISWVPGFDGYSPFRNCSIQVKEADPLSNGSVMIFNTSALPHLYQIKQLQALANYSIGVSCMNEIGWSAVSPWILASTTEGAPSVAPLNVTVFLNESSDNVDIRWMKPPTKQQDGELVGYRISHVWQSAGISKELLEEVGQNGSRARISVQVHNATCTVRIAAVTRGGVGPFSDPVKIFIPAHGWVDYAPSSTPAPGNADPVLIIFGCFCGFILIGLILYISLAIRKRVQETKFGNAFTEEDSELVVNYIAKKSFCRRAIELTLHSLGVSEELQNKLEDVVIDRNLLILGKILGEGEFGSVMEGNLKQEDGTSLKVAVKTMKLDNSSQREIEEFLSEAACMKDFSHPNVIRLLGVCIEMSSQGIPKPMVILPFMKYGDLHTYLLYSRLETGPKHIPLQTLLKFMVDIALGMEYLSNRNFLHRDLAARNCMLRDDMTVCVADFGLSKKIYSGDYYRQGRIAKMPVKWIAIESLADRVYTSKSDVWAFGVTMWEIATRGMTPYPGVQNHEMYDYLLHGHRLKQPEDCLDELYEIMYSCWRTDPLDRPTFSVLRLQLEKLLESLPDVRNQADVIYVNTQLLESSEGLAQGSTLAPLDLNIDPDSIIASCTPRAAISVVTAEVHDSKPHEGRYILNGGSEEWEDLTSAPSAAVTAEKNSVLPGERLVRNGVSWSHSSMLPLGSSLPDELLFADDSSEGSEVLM

Study 1 — organism: Plasmodium berghei; action: inhibitor; cell line: Huh-7; strain: liver stage; tested at: 10 µM; time: 24 h; reference: untreated control; endpoint: infection rate
CC1(C)S[C@@H]2[C@H](N3C(=O)[C@@H](c4ccccc4)NC3(C)C)C(=O)N2[C@H]1C(=O)O: 100%
C[C@]12CCC(=O)C=C1CC[C@@H]1[C@@H]2[C@@H](O)C[C@@]2(C)[C@H]1CC[C@]2(O)C(=O)CO: 104%
COc1c(N2CCNC(C)C2)c(F)cc2c(=O)c(C(=O)O)cn(C3CC3)c12 (stereo not drawn): 86%

Study 2 — target: OGT, full length, His-tagged (human); method: phage display, sequencing; medium: in vitro; tested at: 1 µg OGT; reference: input library; reading: higher = stronger binding; endpoint: fold enrichment; parent: peptide; GDFPVMFMPKYSIIY
Notes: single substitutions, 15-mer displayed peptide, unchanged parent 5.27
G1H: 7.52 fold
D2W: 3.72 fold
G1Q: 6.01 fold
I14M: 1.81 fold
M8N: 0.765 fold
Y15A: 1.79 fold
K10L: 3.11 fold
M8F: 2.43 fold

Study 3 — observed: cell-free assay; method: competition with immobilised ligand; tested at: 1 µM; endpoint: remaining binding
Compound: CCS(=O)(=O)c1cc2cc(C[C@@](O)(CC(C)(C)c3ccc(F)cc3C(N)=O)C(F)(F)F)[nH]c2cn1
FLT3 (Homo sapiens, UniProt P36888, K663Q): 83%
Aurora kinase C (AURKC, Homo sapiens, UniProt Q9UQB9): 81%
FLT1 (Homo sapiens, UniProt P17948): 67%
CDK8 (Homo sapiens, UniProt P49336): 100%
ALK (Homo sapiens, UniProt Q9UM73, L1196M): 100%
HIPK4 (Homo sapiens, UniProt Q8NE63): 100%
STK38L (Homo sapiens, UniProt Q9Y2H1): 38%
Non-receptor tyrosine-protein kinase TYK2, JH2 (TYK2, Homo sapiens, UniProt P29597): 83%
Ribosomal protein S6 kinase alpha-3, C-terminal kinase domain (RPS6KA3, Homo sapiens, UniProt P51812): 100%
MERTK (Homo sapiens, UniProt Q12866): 100%
BMP2K (Homo sapiens, UniProt Q9NSY1): 69%
ITK (Homo sapiens, UniProt Q08881): 96%
EPHB2 (Homo sapiens, UniProt P29323): 95%
LATS2 (Homo sapiens, UniProt Q9NRM7): 100%
MAP3K15 (Homo sapiens, UniProt Q6ZN16): 57%

Study 4 — method: RNA Bind-n-Seq; molecule type: RNA; medium: in vitro; tested at: not given; reference: input RNA pool; reading: higher = stronger binding; endpoint: bound/input enrichment
Target: RING finger protein unkempt homolog, zinc fingers 1-6, GST-SBP tag (UNK, Homo sapiens, UniProt Q9C0B0, residues 30-357)
Notes: RNA with constant flanks, human-mouse chimeric sites, ends assumed
Residues (chain): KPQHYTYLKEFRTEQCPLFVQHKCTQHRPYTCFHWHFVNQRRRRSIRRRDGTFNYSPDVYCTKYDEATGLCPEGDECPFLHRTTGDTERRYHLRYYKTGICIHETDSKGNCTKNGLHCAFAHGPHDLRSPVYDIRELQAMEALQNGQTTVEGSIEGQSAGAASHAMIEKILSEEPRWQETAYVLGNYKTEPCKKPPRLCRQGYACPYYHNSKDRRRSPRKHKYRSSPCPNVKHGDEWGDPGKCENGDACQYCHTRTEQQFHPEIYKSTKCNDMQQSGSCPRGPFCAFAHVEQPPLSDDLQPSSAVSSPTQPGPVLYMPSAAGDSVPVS
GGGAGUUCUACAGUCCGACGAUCUGUAGUUUCGCGGUUCAGGCUUUGUGUGUAGUUCACUUACGGUAUUAAAUUAUUAUUCUGCUUAGCUUAUAAUAAGGAUUACAAUUGUUAAAGAGGUUACUGAAUGUUACUCUGAAACUUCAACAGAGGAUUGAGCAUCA: 0.5 ratio
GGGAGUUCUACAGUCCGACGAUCGAUCAUGAACCACCAUCCAGAAAUGAAAUGAGAUUACCCAGACGAGCCAAAACAGCUGCGCUACAGAAAAAGUAAACUAACCUUGCAGAGUUCCUUAAUGAAGAUACAAGUUAAGAGAGCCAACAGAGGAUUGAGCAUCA: 0.3 ratio
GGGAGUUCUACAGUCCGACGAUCAAAGCCCAAGUAUUUUGAAAAAACUCGAACAGAUUUGACAAGGGUAGCCAGCUUGGAGUCUAGCAAUUUGCCAAUGUGUUUACCAAUUUUGGGGGCUGUUUUUCUUUUCUUCUUUCAAAUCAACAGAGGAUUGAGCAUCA: 0.894 ratio
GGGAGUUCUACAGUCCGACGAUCGUAGCUGGGACUACAGAAAUGCUGGUAGUGCUCCGGCCUUGCUGAUGACUUCUGAUGACCUAGCAAAUGUUGGCAUUGUUGACUGCUGAGAAGAUACUUCUGAGGACCCACGUCUAAGGUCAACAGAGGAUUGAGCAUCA: 0.0716 ratio
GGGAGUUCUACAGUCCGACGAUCUCUUAACUUAUUCAUUUAACUUAUUUUUAGCACUUAGUAAAUAUUGUUAGUCUUAGACAAUAGCUCACAUUUUUUGAAAAGCAUGCUCUCCCUGUCCAUUUGUCUUAUAACAUGACCCAGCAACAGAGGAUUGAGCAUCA: 560 ratio
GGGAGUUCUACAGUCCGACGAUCCCCCAAUACCAUUUGCAGGUCUGGAACUGCACUCUCUUUAAAGUUUUAUAUGCAUAUAUUUUAGGGCUGUAGAUUUAUUUUCCUGGUUUUGUUUUUCAUUGCUGACUUUUGAGCACAGAACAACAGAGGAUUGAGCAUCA: 2.24 ratio
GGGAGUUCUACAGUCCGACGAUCCCAAUUGUGGAGCAGUACUUGAAGACAAAGAAAAAUUCUAAUAAUUUAAUCAUCAAGUACAUUAGCUGCCGGCUGGUGACACUCAUCAUUAUACUGUUAGCGUGUAUCUACCUGGGCUAUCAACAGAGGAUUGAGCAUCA: 0.647 ratio
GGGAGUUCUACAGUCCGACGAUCAAACAUCUGUCUUUAAGGUCAACGUAGGAGAAUGCUGGGGUGAUCAUUGUUGCCCAUGUGCCUUCUGACUGAGCUUUAAUGCUGUUCCAUGUUACAUCUUUCCUUCACUCCAGAAUUGUUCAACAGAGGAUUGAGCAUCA: 0.105 ratio

Other studies, line by line
Cc1ccc(N2CC(c3nc(-c4cc5c(C)nn(-c6ccccc6)c5s4)no3)CC2=O)cc1 (stereo not drawn)
remaining compound (human, microsomes or S9; 2 µM, 0.5 h): > 100%

COCC(=O)NCCc1c(C)[nH]c2ccc(O)cc12
nuclei count (mouse MPNST tumor cells; high-content nuclear imaging, measured: cell number; 10 µM, 12 h, mean of 2 replicates; reference: plate mean, higher = more cells): 0.517 z-score

A few entries again (study 4):
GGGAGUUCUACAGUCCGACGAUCGUAGCUGGGACUACAGAAAUGCUGGUAGUGCUCCGGCCUUGCUGAUGACUUCUGAUGACCUAGCAAAUGUUGGCAUUGUUGACUGCUGAGAAGAUACUUCUGAGGACCCACGUCUAAGGUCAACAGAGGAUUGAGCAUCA: 0.0716 ratio
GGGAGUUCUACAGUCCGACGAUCCCCCAAUACCAUUUGCAGGUCUGGAACUGCACUCUCUUUAAAGUUUUAUAUGCAUAUAUUUUAGGGCUGUAGAUUUAUUUUCCUGGUUUUGUUUUUCAUUGCUGACUUUUGAGCACAGAACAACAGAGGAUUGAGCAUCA: 2.24 ratio
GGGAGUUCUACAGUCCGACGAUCAAACAUCUGUCUUUAAGGUCAACGUAGGAGAAUGCUGGGGUGAUCAUUGUUGCCCAUGUGCCUUCUGACUGAGCUUUAAUGCUGUUCCAUGUUACAUCUUUCCUUCACUCCAGAAUUGUUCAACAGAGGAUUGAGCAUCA: 0.105 ratio
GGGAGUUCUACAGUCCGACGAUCGAUCAUGAACCACCAUCCAGAAAUGAAAUGAGAUUACCCAGACGAGCCAAAACAGCUGCGCUACAGAAAAAGUAAACUAACCUUGCAGAGUUCCUUAAUGAAGAUACAAGUUAAGAGAGCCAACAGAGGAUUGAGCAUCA: 0.3 ratio
